Experimental data pooled from the literature.
A part holds a random share of what one study measured.

Block 1 — technique: RNA Bind-n-Seq; form: RNA; matrix: in vitro; concentration: 365 nM; baseline: no-protein control; direction: higher = stronger binding
Target: RNA binding protein fox-1 homolog 2, RRM domain, GST-SBP tag (RBFOX2, Homo sapiens, UniProt O43251-10, residues 100-194)
Setting: natural RNA segment, single round, ends assumed
Constant ends, left off below: GGGAGUUCUACAGUCCGACGAUC … UGGAAUUCUCGGGUGCCAA
Residues (chain): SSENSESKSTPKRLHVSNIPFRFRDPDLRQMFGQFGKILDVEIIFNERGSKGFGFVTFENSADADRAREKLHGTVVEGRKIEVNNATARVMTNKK
| Sequence | RBNS enrichment (R) |
| --- | --- |
| GGGGUGGGCGCCGCUAGCCAAGAAAACACUAGAGAGCUGCAGGUACCUGCCACUUGGUCCUGGGAGGUCAAAGGCCACAGAGGGAUAGGUACAGUCACCACCACCCUGGA | 0.386 |
| AGACAUGCAAAGCAUUCUUUUGCAUGUCUUUAUUUAAUUGUGGUUUUAUUAUCAAAAUUAUAUUUCUGAUAAAAUAUUUUAAUUUUGAGGUAAUCCUUACAAAAUGAAGG | 0.732 |
| AAGUUCCUUUUUACUUCAAGCUACUUUUUAUAAAAAAGAACAUUUUUCCAGUGUGGUUUUUAACAGAUAAUACAUUUCUUCCACAUUCAGAUUAGUAUUCGGACAUGAAU | 0.403 |
| CGGAAUGUGUCAGUGCAUUUUCUCCUUGCUGAGAGUCUCAGCUCCAAUCUCUUCAUAAUUUUGUUCUGUAAAAGAUGAACCUUUCCGAGUGAUGCAUUCAAACUGUCUAG | 0.658 |
| UAUUUGUUGGCAUGCUUACAACACAUGUCCAUUAAAGUUCAUUUGGUCCUUUUAUUUUCAUUGUUUUCUUGGUUAGUGAUUUCAUUUGCAUAAACAUUAAUUAUCUCUGC | 0.608 |
| GAAGCUAAUGCCGGCAUGUCCCUUGGGUGAGCUCUACAUGGUGUUAUUCAGUCUGGUUCUUGGCUCCCCACUACUGUUUCUCUCAGCCUCUCAGAGCCUGAAACUUACCU | 0.857 |
| AAAUCAUGGACAGUAAAUGGUGACAGAUGUCUGAAGGGGUCUCAAAGAUGCAAGGGAACAUGGGGUCAAAGGGGCCACCCACCACAUCUGAUGAUAUGUUAGUUUUGUUG | 0.95 |
| GAAGAGGUUGAGUUUGCUGCCAGGAUUCAGAUCAGCCCUUCCCAGGGUCUGCAGGUGUCACAUGAUCACAGUUCAGCGGGAGGCUUUCCGUACCCACACUGGCUGUAGCC | 0.811 |
| UUUAAUCCCAUACAUUCGAGUUAAGUUUAGUGUUGAUGUUCCAUCAUUCUGGACCUCCCAGGAGUUGUUUAAGAAUGAAUCUCUUACACCUCUACUUUUGCCCCUCUACU | 0.318 |

Block 2 — technique: protein binding microarray; form: double-stranded DNA, one strand shown; matrix: in vitro; concentration: not given; baseline: not given; direction: higher = stronger binding
Target: Histone acetyltransferase KAT6A, winged helix 1, GST fusion (KAT6A, Homo sapiens, UniProt Q92794, residues 1-85)
Setting: 8-mer, flanks averaged, mean of 2 arrays, mostly near background
Residues (chain): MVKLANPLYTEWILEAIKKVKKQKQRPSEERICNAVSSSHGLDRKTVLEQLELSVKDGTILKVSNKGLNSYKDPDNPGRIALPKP
| Sequence | E-score |
| --- | --- |
| ACACTAAT | -0.0016 |
| CACGGGTC | 0.326 |
| GACGCAAA | 0.246 |
| CGCGCAGA | 0.305 |
| CCAAACAA | -0.0981 |
| AACATCGC | 0.194 |
| GCGCCCGA | 0.405 |
| CGCTGACA | 0.0806 |

Block 3 — technique: competition protein-binding microarray; form: double-stranded DNA, one strand shown; matrix: in vitro; concentration: 2 µM; added: Pho4 competitor, 0.05 µM; direction: higher = stronger binding; constant ends, left off below: … GTCTTGATTCGCTTGACGCTGCTG
Target: Centromere-binding protein 1, full length, His-tagged (CBF1, Saccharomyces cerevisiae, UniProt P17106, residues 1-351)
UniProt P17106, sequence (whole entry, looked up): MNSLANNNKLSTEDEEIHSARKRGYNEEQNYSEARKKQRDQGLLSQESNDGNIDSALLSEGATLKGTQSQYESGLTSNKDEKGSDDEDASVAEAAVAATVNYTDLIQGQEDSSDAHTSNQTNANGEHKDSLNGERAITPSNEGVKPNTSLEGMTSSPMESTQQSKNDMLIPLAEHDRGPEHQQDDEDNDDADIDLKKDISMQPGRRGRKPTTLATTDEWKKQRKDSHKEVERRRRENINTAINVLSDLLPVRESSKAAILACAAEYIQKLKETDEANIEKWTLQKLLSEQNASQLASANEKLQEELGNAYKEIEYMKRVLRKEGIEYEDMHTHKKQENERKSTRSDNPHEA
Setting: whole 60-bp probe, lowest competitor level
| Sequence | fluorescence intensity [a.u.] |
| --- | --- |
| AAATTACTAAGTTGAGTTGTGGGTGACGCCGTATGA | 70.9 |
| GTCATCCTCGTCGTTCACGGGTTTAATTTGAATCCT | 165 |
| TCAACTTGGGCAGCACACATGCAAAACATCACCCAA | 97.1 |
| TTTCGAGAGCATACCCACGGGTAGGAAAGAAAGAGG | 76.5 |
| ATAGTTTGAACCGGTCCCGTGTGTTAGTGGTAGGAC | 231 |
| TAGGTCCAAAACTTGCGCGTGGAAGACGCTGGCCAT | 66.3 |
| GACGGAAGACTCTCCTCCGTGCGATCTCGTCTTCAT | 62.4 |
| CTTCTGTAAATTTGTCCGGTGGGTGGACGCGCCCCG | 85.2 |
| TTTTAAGGGTTTCGCCATGTGGCATGCCACCGGCAA | 72.9 |

Mixed results
| Substance | target | test | system | conditions | scale | quantity | value |
| --- | --- | --- | --- | --- | --- | --- | --- |
| PhoQ, residues 284 288 289 292 302 303 MLMVEA | PhoP, residues 12 14 15 18 19 NQFFI (Escherichia coli, UniProt P23836) | Sort-seq, refers to: YFP reporter | E. coli | PhoQ-PhoP variant library, added: 10 µM Mg2+ | baseline: high Mg2+ state, higher = stronger signaling | fold induction | 18 |
